{"data": "Results of several laboratories", "note": "Parts stem from different laboratories: compare values within a part only. Changes are numbered by the printed parent chain."}
{"data": "Series 1", "target": "Prothrombin, mature alpha-thrombin (F2, Homo sapiens, UniProt P00734)", "method": "aptamer microarray, sandwich", "form": "DNA with 2'F-ANA", "sample": "in vitro", "concentration": "200 nM", "setting": "whole 15-mer aptamer, many near background", "together with": "Cy3 exosite-II aptamer, 400 nM", "direction": "higher = stronger binding", "strand": "GGTTGGTGTGGTTGG"}
{"Modification": "2'F-ANA at 1 2 3 5 6 8 9 13 15", "mean fluorescence intensity [a.u.]": 71.5}
{"Modification": "2'F-ANA at 2 4 6 7 8 11 12", "mean fluorescence intensity [a.u.]": 545}
{"Modification": "2'F-ANA at 5 7 8 9 10 11 12 14", "mean fluorescence intensity [a.u.]": 65.5}
{"Modification": "2'F-ANA at 3 4 7 9 12 15", "mean fluorescence intensity [a.u.]": 945}
{"Modification": "2'F-ANA at 1 2 3 7 11 12 14", "mean fluorescence intensity [a.u.]": 84.7}
{"Modification": "2'F-ANA at 1 2 4 6 9 12 13", "mean fluorescence intensity [a.u.]": 154}
{"Modification": "2'F-ANA at 2 3 9 12 13 14 15", "mean fluorescence intensity [a.u.]": 362}
{"Modification": "2'F-ANA at 2 7 8 9 10 11 15", "mean fluorescence intensity [a.u.]": 174}
{"Modification": "2'F-ANA at 1 2 3 4 5 6 8 12 15", "mean fluorescence intensity [a.u.]": 116}
{"Modification": "2'F-ANA at 1 2 3 8 9 11 14 15", "mean fluorescence intensity [a.u.]": 93.5}
{"data": "Series 2", "target": "CCND2, cyclin fold, Cln2 fusion (human)", "method": "yeast growth competition, sequencing", "sample": "yeast", "setting": "weak parent motif", "reference": "not given", "direction": "higher = stronger binding", "starting sequence": "SLBP docking peptide (human); ARYKRKLLINDFG"}
{"Variant": "ARYKSKLLINDFG [R5S]", "normalised enrichment score": 0.346}
{"Variant": "ARYKRKLLINDFW [G13W]", "normalised enrichment score": -0.478}
{"Variant": "GRYKRKLLINDFG [A1G]", "normalised enrichment score": 0.559}
{"Variant": "ARYKRKLLIWDFG [N10W]", "normalised enrichment score": 0.273}
{"Variant": "ARYKRKVLINDFG [L7V]", "normalised enrichment score": -0.134}
{"Variant": "ARYKRKLLINGFG [D11G]", "normalised enrichment score": 0.044}
{"Variant": "ARYKRRLLINDFG [K6R]", "normalised enrichment score": 0.226}
{"Variant": "AWYKRKLLINDFG [R2W]", "normalised enrichment score": 0.346}
{"Variant": "ARYKLKLLINDFG [R5L]", "normalised enrichment score": 0.258}
{"data": "Series 3", "target": "Centromere-binding protein 1, full length, N-terminal tag (CBF1, Saccharomyces cerevisiae, UniProt P17106, residues 1-351)", "method": "protein-binding microarray", "form": "double-stranded DNA, one strand shown", "sample": "in vitro", "concentration": "0.8 µM", "setting": "whole 60-bp probe, no competitor", "direction": "higher = stronger binding", "UniProt P17106, sequence (whole entry, looked up)": "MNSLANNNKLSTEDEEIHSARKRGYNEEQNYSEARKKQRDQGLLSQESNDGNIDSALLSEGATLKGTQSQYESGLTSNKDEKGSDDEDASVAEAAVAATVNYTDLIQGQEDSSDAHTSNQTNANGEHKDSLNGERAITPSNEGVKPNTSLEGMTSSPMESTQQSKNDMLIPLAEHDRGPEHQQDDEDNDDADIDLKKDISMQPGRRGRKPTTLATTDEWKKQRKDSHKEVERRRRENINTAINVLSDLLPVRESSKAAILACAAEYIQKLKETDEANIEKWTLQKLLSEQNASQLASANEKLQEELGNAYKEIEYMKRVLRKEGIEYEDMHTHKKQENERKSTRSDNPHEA"}
{"Strand": "GAAATGCCCTTATTCCTCATGACAGACTGAAACTAGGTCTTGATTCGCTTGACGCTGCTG", "fluorescence intensity [a.u.]": 577}
{"Strand": "GAAGACCACCTTGCGCACGGGAACGCCGCACTGTAGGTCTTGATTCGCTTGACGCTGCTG", "fluorescence intensity [a.u.]": 667}
{"Strand": "CTACTTCCCATTCATGATGTGATTACGCATTTTTTCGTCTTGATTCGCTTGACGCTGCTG", "fluorescence intensity [a.u.]": 552}
{"Strand": "CTAGCTCAAATATACAACCTGATGAGAAAGTAATTCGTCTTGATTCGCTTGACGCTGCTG", "fluorescence intensity [a.u.]": 526}
{"Strand": "GAATTAACAATCACTCATGTGCATTGCACCTTATAGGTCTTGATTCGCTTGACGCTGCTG", "fluorescence intensity [a.u.]": 551}
{"Strand": "CTACTTGTTGCAATAAGCGTGAGGTATGCCGAGTTCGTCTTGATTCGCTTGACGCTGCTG", "fluorescence intensity [a.u.]": 512}
{"Strand": "CTAATGTGTACATTTTGTATCACGTGCAATATTTTCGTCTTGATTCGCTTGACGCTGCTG", "fluorescence intensity [a.u.]": 16300}
{"Strand": "CTAAATGATAAATAGCACGATATGTAACAATAGTTCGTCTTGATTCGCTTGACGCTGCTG", "fluorescence intensity [a.u.]": 579}
{"Strand": "GAACAATGGTGAACTAACGTGCTGTTGCGCTTATAGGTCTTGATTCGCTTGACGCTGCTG", "fluorescence intensity [a.u.]": 566}
{"Strand": "GAAGTGGCTCACACACATGTGGGCGCTATCCCCTAGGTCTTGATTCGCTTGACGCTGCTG", "fluorescence intensity [a.u.]": 526}
{"Strand": "CTATTCGGAGTTTCTCATGTGTTCTAGAAGATTTTCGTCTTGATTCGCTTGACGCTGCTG", "fluorescence intensity [a.u.]": 556}
{"Strand": "GAACATTTCTGGGACATCAGCACTTGCGGTGCTTAGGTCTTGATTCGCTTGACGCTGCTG", "fluorescence intensity [a.u.]": 514}
{"data": "Other studies, line by line"}
{"Substance": "PhoQ, residues 284 288 289 292 302 303 ALSMDL", "target": "PhoP, residues 12 14 15 18 19 GQALL (Escherichia coli, UniProt P23836)", "assay": "Sort-seq, item: YFP reporter", "system": "E. coli", "conditions": "PhoQ-PhoP variant library, together with: 10 µM Mg2+", "scale": "reference: high Mg2+ state, higher = stronger signaling", "endpoint": "fold induction", "value": 10.1}
{"note": "A few entries again (series 1):"}
{"Modification": "2'F-ANA at 5 7 8 9 10 11 12 14", "mean fluorescence intensity [a.u.]": 65.5}
{"Modification": "2'F-ANA at 3 4 7 9 12 15", "mean fluorescence intensity [a.u.]": 945}
{"Modification": "2'F-ANA at 1 2 3 7 11 12 14", "mean fluorescence intensity [a.u.]": 84.7}
{"Modification": "2'F-ANA at 1 2 4 6 9 12 13", "mean fluorescence intensity [a.u.]": 154}
